Published values collected from several papers.
A part holds a random share of what one study measured. Substitutions count along the parent as printed.

Series 1
Target: UBE2D4 UBC core domain (UniProt Q9Y2X8)
Method: yeast two-hybrid
Medium: yeast
Setting: mostly zero background
Relative to: not given
Reading: higher = stronger interaction
Quantity: lacZ reporter activity
B1: RNF14 RING domain (UniProt Q9UBS8); chain IKCFNSKLFLCSICFCEKLGSECMYFLECRHVYCKACLKDYFEIQIRDGQVQCLNCPEPKCPSVATPGQVK
B2: TRIM10 RING domain (UniProt Q9UDY6); chain SVTSLADEVNCPICQGTLREPVTIDCGHNFCRACLTRYCEIPGPDLEESPTCPLCKEPFRPGSFRP
B3: RNF43 RING domain (UniProt Q68DV7); chain SGSSCSSAPVCAICLEEFSEGQELRVISCLHEFHRNCVDPWLHQHRTCPLCMFNITEGDSFS
B4: PHF7 RING domain (UniProt Q9BWX1); chain IQHGHVGEESCILCCEDLSQQSVENIQSPCCSQAIYHRKCIQKYAHTSAKHFFKCPQCNNRKEFPQEML
B5: RFPL2 RING domain (UniProt O75678); chain MAALFQEASSCPVCSDYLEKPMSLECGCAVCLKCINSLQKEPHGEDLLCCCSSMVSRKNKIRR
B6: TRIM55 RING domain (UniProt Q9BYV6); chain TMDNLEKQLICPICLEMFTKPVVILPCQHNLCRKCASDIFQASNPYLPTRGGTTMASGGRFRCPSCRHEVVLDRHG
B7: NSMCE1 RING domain (UniProt Q8WV22); chain RETYPDAVKICNICHSLLIQGQSCETCGIRMHLPCVAKYFQSNAEPRCPHCNDYWPHEIPKV
B8: MSL2 RING domain (UniProt Q9HCI7); chain LLPYFRQSLSCCVCGHLLQDPIAPTNSTCQHYVCKTCKGKKMMMKPSCSWCKDYEQFEENKQ
Construct (chain): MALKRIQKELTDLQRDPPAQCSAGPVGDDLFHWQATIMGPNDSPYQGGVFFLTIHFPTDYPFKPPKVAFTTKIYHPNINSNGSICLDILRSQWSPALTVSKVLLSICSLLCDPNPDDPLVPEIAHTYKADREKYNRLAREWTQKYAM
B1 (RNF14 RING domain): 0
B2 (TRIM10 RING domain): 0
B3 (RNF43 RING domain): 7880
B4 (PHF7 RING domain): 0
B5 (RFPL2 RING domain): 0
B6 (TRIM55 RING domain): 0
B7 (NSMCE1 RING domain): 0
B8 (MSL2 RING domain): 0

Series 2
Target: CCNB3, cyclin fold, Cln2 fusion (human)
Method: yeast growth competition, sequencing
Medium: yeast
Setting: weak parent motif
Relative to: not given
Reading: higher = stronger binding
Quantity: normalised enrichment score
Starting sequence: viral docking peptide; PTARRRLLHDLDT; partner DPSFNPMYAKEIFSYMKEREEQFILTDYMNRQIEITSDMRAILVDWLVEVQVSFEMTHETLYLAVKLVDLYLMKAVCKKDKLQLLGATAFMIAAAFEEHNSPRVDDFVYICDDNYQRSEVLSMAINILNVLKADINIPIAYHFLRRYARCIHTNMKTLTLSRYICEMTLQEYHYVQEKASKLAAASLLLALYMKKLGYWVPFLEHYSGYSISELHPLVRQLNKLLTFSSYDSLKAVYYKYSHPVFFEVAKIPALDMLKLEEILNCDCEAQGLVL
PTARRRLLHDLAT [D12A]: -0.429
PTARRRLLADLDT [H9A]: 0.224
PTARARLLHDLDT [R5A]: 0.112
PTARKRLLFDLDT [R5K H9F]: 1.49
PTARRRLLFDLDT [H9F]: 2.31
PTAARRLLHDLDT [R4A]: -0.441
ATARRRLLHDLDT [P1A]: 0.423
PTARRRLLHALDT [D10A]: -0.00302

Series 3
Target: HLA class I histocompatibility antigen, A alpha chain, allele A*80:01 (Homo sapiens, UniProt P04439)
Observed: peptide-MHC binding
Form: peptide
Tested at: concentration not given
Quantity: binding
LEMNDAPTA: inactive
ITDEINQIK: inactive
KMKDPKMYH: inactive
RTDNGGWAH: inactive
ITLFPSYQL: inactive
SSDLRSWTF: inactive
LKEKSSLRY: inactive
SIYYTLVRM: inactive

Mixed results
CN(C)C(=O)COC(=O)Cc1ccc(OC(=O)c2ccc(NC(=N)N)cc2)cc1  IC50 (trypsin; enzyme activity, inhibitor): 0.524 nM

Repeated from above (series 2):
PTAARRLLHDLDT [R4A]: -0.441
PTARKRLLFDLDT [R5K H9F]: 1.49
PTARRRLLFDLDT [H9F]: 2.31
